Experimental data from different studies.
Protocols differ between the studies behind these lines. ± marks the error that the study gave.
IL18BP: IL18BP (Homo sapiens, UniProt O95998)
B1: EFNB1 28-237 (Homo sapiens, UniProt P98172); sequence looked up; chain LAKNLEPVSWSSLNPKFLSGKGLVIYPKIGDKLDIICPRAEAGRPYEYYKLYLVRPEQAAACSTVLDPNVLVTCNRPEQEIRFTIKFQEFSPNYMGLEFKKHHDYYITSTSNGSLEGLENREGGVCRTRTMKIIMKVGQDPNAVTPEQLTTSRPSKEADNTVKMATQAPGSRGSLGDSDGKHETVNQEEKSGPGASGGSSGDPDGFFNSK
B2: TNFSF4 51-183 (Homo sapiens, UniProt P23510); sequence looked up; chain QVSHRYPRIQSIKVQFTEYKKEKGFILTSQKEDEIMKVQNNSVIINCDGFYLISLKGYFSQEVNISLHYQKDEEPLFQLKKVRSVNSLMVASLTYKDKVYLNVTTDNTSLDDFHVNGGELILIHQNPGEFCVL
B3: IL18 37-193 C74S/T99C/C104S/C112S/P124C/C163S (Homo sapiens, UniProt Q14116); chain YFGKLESKLSVIRNLNDQVLFIDQGNRPLFEDMTDSDSRDNAPRTIFIISMYKDSQPRGMAVCISVKSEKISTLSSENKIISFKEMNCPDNIKDTKSDIIFFQRSVPGHDNKMQFESSSYEGYFLASEKERDLFKLILKKEDELGDRSIMFTVQNED
B4: UPF2 761-1227 (Homo sapiens, UniProt Q9HAU5); sequence looked up; chain EKTVKKKRPPLQEYVRKLLYKDLSKVTTEKVLRQMRKLPWQDQEVKDYVICCMINIWNVKYNSIHCVANLLAGLVLYQEDVGIHVVDGVLEDIRLGMEVNQPKFNQRRISSAKFLGELYNYRMVESAVIFRTLYSFTSFGVNPDGSPSSLDPPEHLFRIRLVCTILDTCGQYFDRGSSKRKLDCFLVYFQRYVWWKKSLEVWTKDHPFPIDIDYMISDTLELLRPKIKLCNSLEESIRQVQDLEREFLIKLGLVNDKDSKDSMTEGENLEEDEEEEEGGAETEEQSGNESEVNEPEEEEGSDNDDDEGEEEEEENTDYLTDSNKENETDEENTEVMIKGGGLKHVPCVEDEDFIQALDKMMLENLQQRSGESVKVHQLDVAIPLHLKSQLRKGPPLGGGEGEAESADTMPFVMLTRKGNKQQFKILNVPMSSQLAANHWNQQQAEQEERMRMKKLTLDINERQEQED
B5: human zyxin; sequence looked up; chain AAPRPSPAISVSVSAPAFYAPQKKFGPVVAPKPKVNPFRPGDSEPPPAPGAQRAQMGRVGEIPPPPPEDFPLPPPPLAGDGDDAEGALGGAFPPPPPPIEESFPPAPLEEEIFPSPPPPPEEEGGPEAPIPPPPQPREKVSSIDLEIDSLSSLLDDMTKNDPFKARVSSGYVPPPVATPFSSKSSTKPAAGGTAPLPPWKSPSSSQPLPQVPAPAQSQTQFHVQPQPQPKPQVQLHVQSQTQPVSLANTQPRGPPASSPAPAPKFSPVTPKFTPVASKFSPGAPGGSGSQPNQKLGHPEALSAGTGSPQPPSFTYAQQREKPRVQEKQHPVPPPAQNQNQVRSPGAPGPLTLKEVEELEQLTQQLMQDMEHPQRQNVAVNELCGRCHQPLARAQPAVRALGQLFHIACFTCHQCAQQLQGQQFYSLEGAPYCEGCYTDTLEKCNTCGEPITDRMLRATGKAYHPHCFTCVVCARPLEGTSFIVDQANRPHCVPDYHKQYAPRCSVCSEPIMPEPGRDETVRVVALDKNFHMKCYKCEDCGKPLSIEADDNGCFPLDGHVLCRKCHTARAQT
B6: EFR3A 721-791 (Homo sapiens, UniProt Q14156); chain SNTEEITFEALKKAIDTSGMEEQEKEKRRLVIEKFQKAPFEEIAAQCESKANLLHDRLAQILELTIRPPPS
B7: IL18 37-193 C74S/C104S/C163S/L174C (Homo sapiens, UniProt Q14116); chain YFGKLESKLSVIRNLNDQVLFIDQGNRPLFEDMTDSDSRDNAPRTIFIISMYKDSQPRGMAVTISVKSEKISTLSCENKIISFKEMNPPDNIKDTKSDIIFFQRSVPGHDNKMQFESSSYEGYFLASEKERDLFKLICKKEDELGDRSIMFTVQNED
B8: human SDHA; sequence looked up; chain ASAKVSDSISAQYPVVDHEFDAVVVGAGGAGLRAAFGLSEAGFNTACVTKLFPTRSHTVAAQGGINAALGNMEEDNWRWHFYDTVKGSDWLGDQDAIHYMTEQAPAAVVELENYGMPFSRTEDGKIYQRAFGGQSLKFGKGGQAHRCCCVADRTGHSLLHTLYGRSLRYDTSYFVEYFALDLLMENGECRGVIALCIEDGSIHRIRAKNTVVATGGYGRTYFSCTSAHTSTGDGTAMITRAGLPCQDLEFVQFHPTGIYGAGCLITEGCRGEGGILINSQGERFMERYAPVAKDLASRDVVSRSMTLEIREGRGCGPEKDHVYLQLHHLPPEQLATRLPGISETAMIFAGVDVTKEPIPVLPTVHYNMGGIPTNYKGQVLRHVNGQDQIVPGLYACGEAACASVHGANRLGANSLLDLVVFGRACALSIEESCRPGDKVPPIKPNAGEESVMNLDKLRFADGSIRTSELRLSMQKSMQNHAAVFRVGSVLQEGCGKISKLYGDLKHLKTFDRGMVWNTDLVETLELQNLMLCALQTIYGAEARKESRGAHAREDYKVRIDEYDYSKPIQGQQKKPFEEHWRKHTLSYVDVGTGKVTLEYRPVIDKTLNEADCATVPPAIRSY
B9: designed binder (Homo sapiens); chain MASAARLTMMWEEVTCPICLDPFVEPVSIECGHSFCQECISQVGKGGGSVCPVCRQRFLLKNLRPNRQLANMVNNLKEISQEAREGTQGERCAVHGERLHLFCEKDGKALCWVCAQSRKHRDHAMVPLEEAAQEYQEKLQVALGELRRKQELAEKLEVEIAIKRADWKKTVETQKSRIHAEFVQQKNFLVEEEQRQLQELEKDEREQLRILGEKEAKLAQQSQALQELISELDRRCHSSALELLQEVIIVLERSESWNLKDLDITSPELRSVCHVPGLKKMLRTCAGGGGSGGGGSGGGGSRLDAPSAIRVYRVTDVYAIIYWYVPLAEIDGFELTYGIKDVPGDRTTIKLTEDDSTYVIYRLKPDTEYEVSLISRRGDMSSNPAKITFKTGL
B10: Pard6b 1-371 (Mus musculus, UniProt Q9JK83); chain MNRGHRHGASSGCLGTMEVKSKFGAEFRRFSLERSKPGKFEEFYGLLQHVHKIPNVDVLVGYADIHGDLLPINNDDNYHKAVSTANPLLRIFIQKKEEADYSAFGTDTLIRKKNMLSNVLRPDNHRKKPHIVISMPQDFRPVSSIIDVDILPETHRRVRLYKYGTEKPLGFYIRDGSSVRVTPHGLEKVPGIFISRLVPGGLAQSTGLLAVNDEVLEVNGIEVSGKSLDQVTDMMIANSRNLIITVRPANQRNNVVRNSRTSGSSSQSTDNSLLGFPQQVEASFEPEDQDSDEDDIIIEDSGEPQQIPKATPAQSLESLTQIELSFESGQNGFSPPQDTSLVPVPGSLDTELESRAPDQKLLEEDGTIITL
B11: IL18 37-193 C74S/C104S/I107C/C112S/N123C/C163S (Homo sapiens, UniProt Q14116); chain YFGKLESKLSVIRNLNDQVLFIDQGNRPLFEDMTDSDSRDNAPRTIFIISMYKDSQPRGMAVTISVKSEKCSTLSSENKIISFKEMCPPDNIKDTKSDIIFFQRSVPGHDNKMQFESSSYEGYFLASEKERDLFKLILKKEDELGDRSIMFTVQNED
B12: IL18 37-193 F57C/C74S/T81C/C104S/C112S/C163S (Homo sapiens, UniProt Q14116); chain YFGKLESKLSVIRNLNDQVLCIDQGNRPLFEDMTDSDSRDNAPRCIFIISMYKDSQPRGMAVTISVKSEKISTLSSENKIISFKEMNPPDNIKDTKSDIIFFQRSVPGHDNKMQFESSSYEGYFLASEKERDLFKLILKKEDELGDRSIMFTVQNED
B13: CDC48A 1-190 (Arabidopsis thaliana, UniProt P54609); chain MSTPAESSDSKSKKDFSTAILERKKSPNRLVVDEAINDDNSVVSLHPATMEKLQLFRGDTILIKGKKRKDTVCIALADETCEEPKIRMNKVVRSNLRVRLGDVISVHQCPDVKYGKRVHILPVDDTVEGVTGNLFDAYLKPYFLEAYRPVRKGDLFLVRGGMRSVEFKVIETDPAEYCVVAPDTEIFCEG
B14: designed binder (Homo sapiens); chain MASAARLTMMWEEVTCPICLDPFVEPVSIECGHSFCQECISQVGKGGGSVCPVCRQRFLLKNLRPNRQLANMVNNLKEISQEAREGTQGERCAVHGERLHLFCEKDGKALCWVCAQSRKHRDHAMVPLEEAAQEYQEKLQVALGELRRKQELAEKLEVEIAIKRADWKKTVETQKSRIHAEFVQQKNFLVEEEQRQLQELEKDEREQLRILGEKEAKLAQQSQALQELISELDRRCHSSALELLQEVIIVLERSESWNLKDLDITSPELRSVCHVPGLKKMLRTCAGGGGSGGGGSGGGGSRLDAPSYIEVRYVTDAEAVISWDYPLAEIDGFELTYGIKDVPGDRTTIKLTEDDYYYYIDYLKPDTEYEVSLISRRGDMSSNPAKITFKTGL
B15: IL18 37-193 S43C/C74S/S86C/C104S/C112S/C163S (Homo sapiens, UniProt Q14116); chain YFGKLECKLSVIRNLNDQVLFIDQGNRPLFEDMTDSDSRDNAPRTIFIICMYKDSQPRGMAVTISVKSEKISTLSSENKIISFKEMNPPDNIKDTKSDIIFFQRSVPGHDNKMQFESSSYEGYFLASEKERDLFKLILKKEDELGDRSIMFTVQNED
UniProt Q94JZ8, sequence (whole entry, looked up): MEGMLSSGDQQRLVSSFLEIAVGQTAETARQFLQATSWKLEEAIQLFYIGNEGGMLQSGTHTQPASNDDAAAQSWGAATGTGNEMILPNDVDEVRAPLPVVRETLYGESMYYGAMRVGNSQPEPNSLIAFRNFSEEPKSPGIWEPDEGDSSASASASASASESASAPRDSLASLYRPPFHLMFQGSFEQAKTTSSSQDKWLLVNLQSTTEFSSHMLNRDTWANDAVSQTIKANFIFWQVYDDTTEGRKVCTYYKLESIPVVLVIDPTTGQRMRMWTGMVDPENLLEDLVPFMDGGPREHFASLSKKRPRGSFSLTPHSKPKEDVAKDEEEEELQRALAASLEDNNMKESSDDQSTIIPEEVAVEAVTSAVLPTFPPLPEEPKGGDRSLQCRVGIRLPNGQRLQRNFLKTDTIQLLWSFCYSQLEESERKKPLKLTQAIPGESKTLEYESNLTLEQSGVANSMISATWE
UniProt O75530, sequence (whole entry, looked up): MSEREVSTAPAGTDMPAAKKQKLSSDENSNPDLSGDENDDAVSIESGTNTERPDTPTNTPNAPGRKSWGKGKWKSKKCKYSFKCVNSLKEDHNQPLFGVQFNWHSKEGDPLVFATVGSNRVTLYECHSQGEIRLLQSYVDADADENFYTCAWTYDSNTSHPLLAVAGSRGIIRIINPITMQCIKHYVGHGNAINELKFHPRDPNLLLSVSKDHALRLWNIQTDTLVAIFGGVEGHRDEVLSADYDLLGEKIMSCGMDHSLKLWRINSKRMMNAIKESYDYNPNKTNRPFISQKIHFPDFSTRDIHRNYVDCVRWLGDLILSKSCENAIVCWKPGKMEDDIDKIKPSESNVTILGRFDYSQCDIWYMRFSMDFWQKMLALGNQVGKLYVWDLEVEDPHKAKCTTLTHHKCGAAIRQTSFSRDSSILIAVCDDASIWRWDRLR
UniProt Q9BZI7, sequence (whole entry, looked up): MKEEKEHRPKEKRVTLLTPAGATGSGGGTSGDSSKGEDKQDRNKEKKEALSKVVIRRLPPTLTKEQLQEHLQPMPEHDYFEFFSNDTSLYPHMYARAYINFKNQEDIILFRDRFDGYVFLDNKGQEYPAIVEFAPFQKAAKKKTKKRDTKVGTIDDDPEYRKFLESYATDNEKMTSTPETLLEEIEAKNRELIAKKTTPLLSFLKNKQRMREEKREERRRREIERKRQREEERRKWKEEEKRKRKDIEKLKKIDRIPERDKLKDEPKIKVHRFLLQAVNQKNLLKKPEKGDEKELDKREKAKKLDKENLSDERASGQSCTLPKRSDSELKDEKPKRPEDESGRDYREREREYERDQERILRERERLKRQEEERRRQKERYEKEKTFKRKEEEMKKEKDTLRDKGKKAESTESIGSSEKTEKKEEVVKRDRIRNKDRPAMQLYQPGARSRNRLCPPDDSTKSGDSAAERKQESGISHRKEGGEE
UniProt P12830, sequence (whole entry, looked up): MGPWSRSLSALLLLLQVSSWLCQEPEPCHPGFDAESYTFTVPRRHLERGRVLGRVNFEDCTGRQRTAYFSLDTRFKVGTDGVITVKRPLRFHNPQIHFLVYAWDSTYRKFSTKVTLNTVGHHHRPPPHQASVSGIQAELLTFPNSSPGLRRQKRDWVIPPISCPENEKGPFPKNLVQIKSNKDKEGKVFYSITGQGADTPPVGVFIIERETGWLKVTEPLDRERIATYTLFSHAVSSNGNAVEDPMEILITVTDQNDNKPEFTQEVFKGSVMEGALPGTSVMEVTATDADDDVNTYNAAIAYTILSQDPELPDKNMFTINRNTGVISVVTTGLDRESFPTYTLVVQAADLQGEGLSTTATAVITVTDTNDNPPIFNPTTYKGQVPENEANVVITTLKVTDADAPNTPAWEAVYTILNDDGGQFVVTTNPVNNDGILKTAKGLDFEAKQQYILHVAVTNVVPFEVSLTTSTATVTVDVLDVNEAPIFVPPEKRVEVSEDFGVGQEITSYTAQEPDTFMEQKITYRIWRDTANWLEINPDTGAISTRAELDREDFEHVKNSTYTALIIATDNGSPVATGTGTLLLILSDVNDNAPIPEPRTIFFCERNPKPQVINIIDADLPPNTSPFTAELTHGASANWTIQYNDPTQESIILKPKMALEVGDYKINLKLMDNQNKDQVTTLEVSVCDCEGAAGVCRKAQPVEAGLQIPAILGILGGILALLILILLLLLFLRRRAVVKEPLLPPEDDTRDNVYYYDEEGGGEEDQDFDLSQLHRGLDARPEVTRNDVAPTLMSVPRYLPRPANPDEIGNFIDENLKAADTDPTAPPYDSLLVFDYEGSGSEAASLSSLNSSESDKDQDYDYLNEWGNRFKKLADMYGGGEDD
UniProt P29317, sequence (25-968, looked up): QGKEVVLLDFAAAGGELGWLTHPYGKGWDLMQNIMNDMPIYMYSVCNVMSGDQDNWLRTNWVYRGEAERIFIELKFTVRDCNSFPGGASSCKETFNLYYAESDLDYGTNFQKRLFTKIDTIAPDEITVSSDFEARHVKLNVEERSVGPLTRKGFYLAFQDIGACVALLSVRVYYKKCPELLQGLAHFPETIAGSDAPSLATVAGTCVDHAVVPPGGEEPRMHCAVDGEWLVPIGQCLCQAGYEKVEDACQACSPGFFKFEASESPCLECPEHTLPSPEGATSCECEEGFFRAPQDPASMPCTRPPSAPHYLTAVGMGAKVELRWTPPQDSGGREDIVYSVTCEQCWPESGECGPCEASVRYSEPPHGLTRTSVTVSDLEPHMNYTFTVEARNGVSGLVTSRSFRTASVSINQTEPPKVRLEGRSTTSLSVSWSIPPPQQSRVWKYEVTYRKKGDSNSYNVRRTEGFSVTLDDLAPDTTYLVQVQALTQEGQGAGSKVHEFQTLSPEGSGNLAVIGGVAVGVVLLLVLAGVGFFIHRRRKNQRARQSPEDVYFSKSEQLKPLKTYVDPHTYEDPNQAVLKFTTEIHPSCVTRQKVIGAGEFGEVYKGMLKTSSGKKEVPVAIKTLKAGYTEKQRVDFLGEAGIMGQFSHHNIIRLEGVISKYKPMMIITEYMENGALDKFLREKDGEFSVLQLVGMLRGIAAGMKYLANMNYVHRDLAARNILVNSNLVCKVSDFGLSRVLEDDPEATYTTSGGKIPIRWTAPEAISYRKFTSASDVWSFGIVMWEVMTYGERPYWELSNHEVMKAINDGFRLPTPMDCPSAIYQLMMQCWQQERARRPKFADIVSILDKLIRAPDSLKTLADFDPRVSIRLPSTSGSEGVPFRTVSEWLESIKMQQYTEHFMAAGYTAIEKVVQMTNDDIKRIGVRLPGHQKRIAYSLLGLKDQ
UniProt P09803, sequence (whole entry, looked up): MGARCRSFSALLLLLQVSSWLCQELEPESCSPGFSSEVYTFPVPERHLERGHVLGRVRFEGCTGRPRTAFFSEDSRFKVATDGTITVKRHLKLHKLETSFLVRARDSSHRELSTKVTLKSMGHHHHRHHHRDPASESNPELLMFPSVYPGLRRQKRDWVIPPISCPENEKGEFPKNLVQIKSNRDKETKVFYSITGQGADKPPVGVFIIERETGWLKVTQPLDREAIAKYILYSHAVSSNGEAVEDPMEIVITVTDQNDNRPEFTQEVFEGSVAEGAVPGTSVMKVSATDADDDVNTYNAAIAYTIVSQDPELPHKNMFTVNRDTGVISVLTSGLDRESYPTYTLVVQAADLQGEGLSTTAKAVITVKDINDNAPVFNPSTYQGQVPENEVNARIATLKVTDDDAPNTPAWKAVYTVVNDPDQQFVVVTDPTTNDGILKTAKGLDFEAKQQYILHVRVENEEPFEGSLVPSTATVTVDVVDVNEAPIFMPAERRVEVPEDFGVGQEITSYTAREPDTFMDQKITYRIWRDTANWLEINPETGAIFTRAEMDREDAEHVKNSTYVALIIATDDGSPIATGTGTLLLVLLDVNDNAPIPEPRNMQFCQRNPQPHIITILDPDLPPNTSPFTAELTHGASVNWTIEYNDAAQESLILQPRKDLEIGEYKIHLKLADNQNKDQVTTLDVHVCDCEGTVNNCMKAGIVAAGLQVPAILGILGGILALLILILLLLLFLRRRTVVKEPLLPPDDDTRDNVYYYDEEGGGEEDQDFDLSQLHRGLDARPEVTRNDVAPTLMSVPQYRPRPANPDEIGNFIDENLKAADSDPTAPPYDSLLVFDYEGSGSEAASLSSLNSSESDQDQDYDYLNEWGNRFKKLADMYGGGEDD
UniProt Q9UDY8, sequence (whole entry, looked up): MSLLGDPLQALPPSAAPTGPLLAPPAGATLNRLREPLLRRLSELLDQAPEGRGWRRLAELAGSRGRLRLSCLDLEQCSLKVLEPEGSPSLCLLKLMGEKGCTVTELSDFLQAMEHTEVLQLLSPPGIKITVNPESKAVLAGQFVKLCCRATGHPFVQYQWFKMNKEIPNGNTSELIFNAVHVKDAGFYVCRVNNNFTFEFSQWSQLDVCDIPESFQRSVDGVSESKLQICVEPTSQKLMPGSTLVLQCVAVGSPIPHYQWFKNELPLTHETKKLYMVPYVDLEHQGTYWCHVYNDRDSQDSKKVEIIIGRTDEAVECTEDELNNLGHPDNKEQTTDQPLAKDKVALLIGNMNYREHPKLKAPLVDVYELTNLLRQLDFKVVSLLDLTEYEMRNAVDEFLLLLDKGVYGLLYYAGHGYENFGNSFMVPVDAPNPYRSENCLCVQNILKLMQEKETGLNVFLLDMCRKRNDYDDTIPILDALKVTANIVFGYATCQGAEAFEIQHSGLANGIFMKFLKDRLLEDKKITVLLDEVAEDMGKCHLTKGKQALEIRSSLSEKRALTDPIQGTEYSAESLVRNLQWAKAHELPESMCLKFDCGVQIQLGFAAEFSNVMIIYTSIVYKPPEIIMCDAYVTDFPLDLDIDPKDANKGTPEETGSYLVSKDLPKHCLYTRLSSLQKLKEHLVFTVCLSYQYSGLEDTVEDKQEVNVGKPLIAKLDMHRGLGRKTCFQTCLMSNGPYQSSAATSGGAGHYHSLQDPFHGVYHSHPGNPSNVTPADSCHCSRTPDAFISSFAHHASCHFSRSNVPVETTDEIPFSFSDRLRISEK

Molecule | target or system | test | system | conditions | how to read | quantity | result
B1 (EFNB1 28-237) | EPHA2 residues 25-968, auto-phosphorylated (Homo sapiens, UniProt P29317) | BLI | Fc fusion | apparent |  | koff | 0.467 s⁻¹
B2 (TNFSF4 51-183) | TNFRSF4 29-170 V53A (Homo sapiens, UniProt P43489) | SPR |  |  |  | koff | 0.02 s⁻¹
B3 | IL18BP | SPR |  |  |  | koff | 2.5e-05 s⁻¹
B4 (UPF2 761-1227) | UPF3B (Homo sapiens, UniProt Q9BZI7) | BLI |  |  |  | koff | 0.00199 s⁻¹
B5 (human zyxin) | PP6C (human) | co-immunoprecipitation, IP-MS | CYB5R4 knockout cells | concentration not given | reference: CYB5R4 knockout over parental | log2 fold change | 0.58
B6 (EFR3A 721-791) | TTC7B/FAM126B FAM126B 1-308 | BLI |  |  |  | koff | 0.000121 s⁻¹
B7 | IL18BP | SPR |  |  |  | koff | 2e-05 s⁻¹
B8 (human SDHA) | PP6C (human) | co-immunoprecipitation, IP-MS | CYB5R4 knockout cells | concentration not given | reference: CYB5R4 knockout over parental | log2 fold change | -1.49
MBL-A mature, hydroxylysine, hydroxyproline in collagen (Rattus norvegicus, UniProt P19999) | C1R fragment (Homo sapiens) | SPR |  | with: CaCl2 140 mM |  | koff | 0.00202 s⁻¹
YLEFDPLYVRLFYVNC (engineered peptide) | VPS35/VPS26A/VPS29 retromer complex (Homo sapiens) | SPR | peptide |  |  | koff | 0.002 s⁻¹
B9 (designed binder) | MALT1 (Homo sapiens, UniProt Q9UDY8) | BLI | designed binder |  |  | koff | 0.00977 s⁻¹
CDH1 (Homo sapiens, UniProt P12830) | Cdh1 157-709 (Mus musculus, UniProt P09803) | adhesion frequency micropipette |  |  |  | koff | 0.9 ± 0.1 s⁻¹
B6 (EFR3A 721-791) | PI4KA/TTC7B/FAM126A TTC7B/FAM126A | BLI |  |  |  | koff | 3.69e-05 s⁻¹
B10 (Pard6b 1-371) | LLGL2 13-978, dephosphorylated (Homo sapiens, UniProt Q6P1M3) | BLI |  |  |  | koff | 0.0356 s⁻¹
B11 | IL18BP | SPR |  |  |  | koff | 2.1e-05 s⁻¹
trastuzumab IgG1 (Homo sapiens) | FCGR1A (Homo sapiens, UniProt P12314) | SPR |  |  |  | koff | 0.00049 s⁻¹
B12 | IL18BP | SPR |  |  |  | koff | 2.2e-05 s⁻¹
YLPTITGVGHLWHPLC (engineered peptide) | VPS35/VPS26A/VPS29 retromer complex (Homo sapiens) | SPR | peptide |  |  | koff | 0.01 s⁻¹
B13 (CDC48A 1-190) | PUX7 (Arabidopsis thaliana, UniProt Q94JZ8) | BLI |  | 25 °C |  | koff | 0.00021 s⁻¹
B14 (designed binder) | EED (Homo sapiens, UniProt O75530) | BLI | designed binder |  |  | koff | 0.00293 s⁻¹
B15 | IL18BP | SPR |  |  |  | koff | 3.2e-05 s⁻¹
EGLN1 fragment | HIF1A NODD peptide 394-411, C-terminal amide (Homo sapiens) | BLI |  |  |  | koff | 0.01 s⁻¹
